Literature values, collected from citations in different studies.
Numbered parts are unrelated; values within a part may stem from several laboratories. ± marks the error that the study gave.

Block 1
SMILES: CN(C)CC/C=C1/c2ccccc2Sc2ccc(Cl)cc21
Cell line: MCF7
Method: microarray
Concentration: concentration not given
Reference: DMSO
For item: ZNF165 mRNA: “log2 fold change” read 1.86.
It gave 1.62 for “log2 fold change” (item: TMEM41B mRNA).
It gave 1.95 for “log2 fold change” (item: SLCO4C1 mRNA).

Block 2
Organism: Toxoplasma gondii
Observed: parasite growth
Concentration: concentration not given
Notes: drug repurposing screen
`CC(C)NCC(O)COc1cccc2ccccc12.Cl` (stereo not shown): activity class “inactive”.
For `O=[N+]([O-])c1cccc2cn[nH]c12`, activity class read “inactive”.
`CCOC(=O)C1=C(C)NC(C)=C(C(=O)OC)C1c1cccc([N+](=O)[O-])c1` (stereo not shown): activity class “inactive”.

Block 3
SMILES: CC[C@H](CC(=O)O)n1c(=O)c2ncccc2n(Cc2cn(C)c3cc(C)cc(C)c23)c1=O
CMA1; biochemical activity — IC50: 0.4 nM.
For cathepsin G; Eurofins protease panel: IC50 read 110 nM.
CMA1; cellular activity — IC50: 198 nM.

Other studies, line by line
The Kd of `O=C(O)CCCOc1ccc(F)cc1-c1cc(-c2ccccc2C(F)(F)F)n(-c2ccccc2)n1` is reported as 24 ± 7 nM (FABP3; binding).

Repeated from above (block 2):
`CC(C)NCC(O)COc1cccc2ccccc12.Cl` (stereo not shown): activity class “inactive”.
`CCOC(=O)C1=C(C)NC(C)=C(C(=O)OC)C1c1cccc([N+](=O)[O-])c1` (stereo not shown): activity class “inactive”.
